Published values from different studies.
Each numbered part is a random draw from the data of one study; scales do not carry over between parts.

Set 1
Target: Sal-like protein 4, full length isoform A (SALL4, Homo sapiens, UniProt Q9UJQ4, residues 1-1053)
Chain of UniProt Q9UJQ4 (whole entry, looked up): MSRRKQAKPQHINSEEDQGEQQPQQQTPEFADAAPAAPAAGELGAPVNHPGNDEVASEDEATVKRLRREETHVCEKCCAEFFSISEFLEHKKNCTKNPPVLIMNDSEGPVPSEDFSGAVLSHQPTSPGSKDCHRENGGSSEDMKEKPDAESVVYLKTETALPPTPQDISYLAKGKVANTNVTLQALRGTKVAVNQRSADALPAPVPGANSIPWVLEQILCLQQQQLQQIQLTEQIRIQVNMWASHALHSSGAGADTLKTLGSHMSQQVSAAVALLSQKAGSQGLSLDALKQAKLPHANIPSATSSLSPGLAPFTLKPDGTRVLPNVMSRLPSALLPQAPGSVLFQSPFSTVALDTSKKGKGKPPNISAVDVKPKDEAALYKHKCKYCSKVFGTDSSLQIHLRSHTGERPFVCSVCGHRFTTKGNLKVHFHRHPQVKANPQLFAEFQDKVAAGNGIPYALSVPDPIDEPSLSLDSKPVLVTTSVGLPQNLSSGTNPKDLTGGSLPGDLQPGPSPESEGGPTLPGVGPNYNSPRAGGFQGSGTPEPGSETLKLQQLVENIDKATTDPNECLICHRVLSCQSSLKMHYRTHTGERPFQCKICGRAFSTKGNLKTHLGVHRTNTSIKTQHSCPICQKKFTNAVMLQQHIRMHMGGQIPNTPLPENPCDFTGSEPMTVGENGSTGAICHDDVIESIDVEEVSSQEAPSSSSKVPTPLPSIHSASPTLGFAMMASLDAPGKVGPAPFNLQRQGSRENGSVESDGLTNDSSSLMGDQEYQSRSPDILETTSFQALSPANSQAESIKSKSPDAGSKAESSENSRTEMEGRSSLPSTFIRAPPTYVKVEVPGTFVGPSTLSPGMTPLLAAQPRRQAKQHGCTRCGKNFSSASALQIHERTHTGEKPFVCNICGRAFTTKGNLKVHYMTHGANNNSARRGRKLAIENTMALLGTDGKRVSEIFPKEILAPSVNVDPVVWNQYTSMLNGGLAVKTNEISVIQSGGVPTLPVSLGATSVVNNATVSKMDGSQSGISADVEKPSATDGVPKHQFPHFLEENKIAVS
Method: universal PBM
Form: double-stranded DNA, one strand shown
Sample: in vitro
Concentration: 600 nM
Setting: 8-mer, flanks averaged, mean of replicates
Reading: higher = stronger binding
Measurement: E-score
AGTCCTAG: -0.147
CATGCTCA: 0.0486
CCTGTACC: -0.242
CAGTGTTC: 0.0787

Set 2
Target: Interferon regulatory factor 3, full length, phosphomimetic (IRF3, Homo sapiens, UniProt Q14653, residues 1-427, S386D/S396D/S398D/S402D/T404D/S405D)
Method: protein-binding microarray
Form: double-stranded DNA, one strand shown
Sample: in vitro
Concentration: 2540 nM top
Setting: 60-bp whole probe
Together with: salmon DNA 0.4 mg/ml
Baseline: random background probes
Reading: higher = stronger binding
Measurement: fitted relative affinity
All sequences stand within: GCCTAGCAC … GTCTTGATTCGCTTGACGCTGCTG
Residues (chain): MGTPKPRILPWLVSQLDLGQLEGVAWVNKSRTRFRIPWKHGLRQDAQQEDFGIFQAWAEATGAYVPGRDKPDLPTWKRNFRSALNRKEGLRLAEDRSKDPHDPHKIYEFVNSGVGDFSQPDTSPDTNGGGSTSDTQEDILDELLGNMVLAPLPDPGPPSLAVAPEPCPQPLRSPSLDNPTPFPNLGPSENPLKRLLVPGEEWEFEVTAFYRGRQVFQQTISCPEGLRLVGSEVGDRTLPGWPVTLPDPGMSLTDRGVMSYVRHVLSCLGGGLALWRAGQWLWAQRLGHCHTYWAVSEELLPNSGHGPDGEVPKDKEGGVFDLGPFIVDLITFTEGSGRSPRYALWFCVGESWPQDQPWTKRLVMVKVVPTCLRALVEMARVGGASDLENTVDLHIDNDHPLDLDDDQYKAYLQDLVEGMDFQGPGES
TTAGATATCAGTATCGATTAGTGCTAG: 1.95 z-score
GATGGTTTCGACTATCGGGACGTGCTA: 2.57 z-score
TCATGTTGTTTTTTGGTACTGTGCTAG: 0.432 z-score
GACGATATCTGGACTGGAGACGTGCTA: -0.124 z-score
GCCGGTTTCCTACTGCTGACGTGCTAG: 5.48 z-score

Set 3
Target: RNA binding protein fox-1 homolog 2, RRM domain, GST-SBP tag (RBFOX2, Homo sapiens, UniProt O43251-10, residues 100-194)
Method: RNA Bind-n-Seq
Form: RNA
Sample: in vitro
Concentration: 365 nM
Setting: natural RNA segment, single round, ends assumed
Baseline: no-protein control
Reading: higher = stronger binding
Measurement: RBNS enrichment (R)
GGGAGUUCUACAGUCCGACGAUCAGCCCCGUGCCCUUGUCUACAGCUGUCCCUUGUGCUUUCUGUGUCGUGUAGUUGGUGUGAGUAUUCUGUGACACAAGUGACGACAGGCUCAGUGACUGCCUGUACCUGUGUGGAAUUCUCGGGUGCCAA: 0.57
GGGAGUUCUACAGUCCGACGAUCAUCUCUUCACUGUUUCUUUUUUAGGACUCCCUUUGCAAGGAGCAACUGUAAUAUUGUGGGACUAACAUGGAUGUAACGUUUAAAAAAAAGAUCAGGAUUAUUAGUAACAAUGGAAUUCUCGGGUGCCAA: 1.47
GGGAGUUCUACAGUCCGACGAUCAUGUGCUGGGCCAAGGAGCUGCCGUGCUCUGCUAGCUUUGACCCGUGGGCAUGGAGAUUUACCCGCACUGUGAACUCUCUAAAGGUUAAACAAAGUGAGGUGAACCAAACUGGAAUUCUCGGGUGCCAA: 0.658

Mixed results
PhoQ, residues 284 288 289 292 302 303 TASMAF — fold induction (PhoP, residues 12 14 15 18 19 TPWLV (Escherichia coli, UniProt P23836); Sort-seq, item: YFP reporter; E. coli; PhoQ-PhoP variant library, together with: 10 µM Mg2+; baseline: high Mg2+ state, higher = stronger signaling): 13.9

Some of these lines once more (set 1):
AGTCCTAG: -0.147
